Measured values from different studies.
Numbered parts are unrelated; each lists some results of a single study. Positions count from the first letter of the parent shown.
UniProt P06493, sequence (whole entry, looked up): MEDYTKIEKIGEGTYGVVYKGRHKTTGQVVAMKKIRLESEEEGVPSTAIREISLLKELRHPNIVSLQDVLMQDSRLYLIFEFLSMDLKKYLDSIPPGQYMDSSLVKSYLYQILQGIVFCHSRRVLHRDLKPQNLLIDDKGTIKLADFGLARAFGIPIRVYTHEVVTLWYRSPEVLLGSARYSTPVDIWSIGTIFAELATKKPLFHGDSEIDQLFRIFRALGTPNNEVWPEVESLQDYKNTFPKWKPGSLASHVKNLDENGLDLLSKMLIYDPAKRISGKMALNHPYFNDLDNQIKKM

Study 1 — technique: universal PBM; molecule type: double-stranded DNA, one strand shown; matrix: in vitro; tested at: not given; direction: higher = stronger binding
Target: Sal-like protein 4, full length isoform B (SALL4, Homo sapiens, UniProt Q9UJQ4-2, residues 1-616)
Notes: 8-mer, flanks averaged, mean of replicates
| Strand | E-score |
| --- | --- |
| GGGTCTAC | -0.13 |
| CCCACTAC | -0.0557 |
| ATAAGGAT | 0.225 |
| CTGTTCCC | -0.172 |
| GGAGAGGA | -0.269 |
| GATCGGAA | 0.0259 |
| AACCACCA | -0.089 |
| CGTTTACC | 0.0345 |

Study 2 — technique: RNA Bind-n-Seq; molecule type: RNA; matrix: in vitro; tested at: not given; baseline: input RNA pool; direction: higher = stronger binding
Target: RING finger protein unkempt homolog, zinc fingers 1-6, GST-SBP tag (UNK, Homo sapiens, UniProt Q9C0B0, residues 30-357)
Notes: RNA with constant flanks, human-mouse chimeric sites, ends assumed
All sequences stand within: GGGAGUUCUACAGUCCGACGAUC … CAACAGAGGAUUGAGCAUCA
Residues (chain): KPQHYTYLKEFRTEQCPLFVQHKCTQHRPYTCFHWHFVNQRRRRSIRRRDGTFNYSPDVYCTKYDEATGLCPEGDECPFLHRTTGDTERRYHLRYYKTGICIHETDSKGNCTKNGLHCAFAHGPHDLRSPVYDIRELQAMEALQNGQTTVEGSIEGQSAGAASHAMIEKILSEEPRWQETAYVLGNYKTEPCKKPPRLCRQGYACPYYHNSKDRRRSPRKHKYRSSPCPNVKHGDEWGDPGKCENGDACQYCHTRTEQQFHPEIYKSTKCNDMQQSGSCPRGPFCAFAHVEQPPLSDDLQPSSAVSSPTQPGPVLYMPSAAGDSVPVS
| Strand | bound/input enrichment |
| --- | --- |
| GUGACAGACAUUAAAAUUUCCCCUCAGCAAAGAAGUGCAGUAGUCACCAUAAUUCCAUCUGUGGUGAGUGCCAGUCAGAUUGUGGAGCUGGUCCCAGACCUCAGUUUAGACAUGGGAACU | 0.283 ratio |
| GUGACUGGUGUUAAGAUUUCCCCUCAGCAAAGAAGUGCAGUAGUCACAAUAAUCCCUUCUGUGGUGAAUGCCAAUCAGAUUGUGGAGCUGGUCCCAGACCUCAGUUUAGACAUGGGAACU | 0.408 ratio |
| GCACUUGGGAAUGUAAUCAGCGCCUUGGGGGACAAGAGCAAGAGAGCCACCCAUGUCCCUUACAGAGACUCUAAGCUAACAAGACUAUUGCAGGAUUCCCUUGGGGGUAACAGCCAAACC | 0.196 ratio |
| AUAAAGGCUAUGUUGAGUGGCCCAGGUCAGUUUGCUGAGAAUGAAACCAACGAGGUCAAUUUUAGAGAGAUCCCCUCACAUGUGCUAUCAAAAGUGUGCAUGUAUUUUACCUACAAGGUC | 0.158 ratio |
| AUAAAGGCUAUGUUGAGUGGCCCAGGUCAGUUUGCUGAGAAUGAAACCAAUGAGGUCAAUUUUAGAGAGAUCCCCUCACAUGUGCUAUCAAAAGUGUGCAUGUAUUUUACCUACAAGGUC | 0.14 ratio |
| AUGGAACAUUUCGAUGCGUCACUCAGUACCUAUUUCAAGGCCUUCCUGGGCCCCCGAGAUACUAGAGUCAAAGGAUGGUUCCUCCUGGACAAUUAUAUCCCUACGUUUGUCUGUUCUGUU | 0.0985 ratio |
| CUUAAUGUUAAUAUUUUUGAAUAAAUGAAGCUAAAAUGUCUGCUUUUGGUACAACACGCAUUAAUAAAAGGUUAAGUAAGUUUUGUUCUCCACUGAAUAUUUAACAUCUCAGAAAAAAAC | 0.27 ratio |
| UAUAAUAAUCAUGAAAUUCGUUCCGGGAAGCACAUUGGUGUCUGCAUCUCAGUUGCCAACAAUAGGCUUUUUGUGGGCUCUAUUCCUAAGAGUAAAACCAAGGAGCAGAUUCUUGAAGAA | 0.695 ratio |

Study 3 — target: FOSB, bZIP domain (human); technique: DHFR protein complementation; matrix: yeast; baseline: wild-type JUN-FOS pair; direction: higher = stronger binding
Notes: single substitutions, most at no-binding floor
Starting sequence: JUN, bZIP domain (human); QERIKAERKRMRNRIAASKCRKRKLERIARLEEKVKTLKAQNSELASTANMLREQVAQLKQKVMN; partner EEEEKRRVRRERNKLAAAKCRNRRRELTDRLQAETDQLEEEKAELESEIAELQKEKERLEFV
| Substitution | binding fitness [natural log] |
| --- | --- |
| S43F | -0.163 |
| L31F | -0.46 |
| E32M | -0.244 |
| I28C | -0.245 |
| L31T | -0.779 |
| V56G | -1.19 |
| E33T | -0.293 |
| S47A | 0.0458 |

Further values, each from its own experiment
| Structure (SMILES) | target | observed | action | tested at | baseline | quantity | value |
| --- | --- | --- | --- | --- | --- | --- | --- |
| CCCC(=O)Oc1ccc2[nH]c(C(=O)c3cc4ccccc4[nH]3)cc2c1 | Cyclin-dependent kinase 1, with cyclin B (CDK1, Homo sapiens, UniProt P06493) | enzyme activity | inhibitor | 0.5 µM | control | remaining activity | 106% |

Some of these lines once more (study 2):
| Strand | bound/input enrichment |
| --- | --- |
| CUUAAUGUUAAUAUUUUUGAAUAAAUGAAGCUAAAAUGUCUGCUUUUGGUACAACACGCAUUAAUAAAAGGUUAAGUAAGUUUUGUUCUCCACUGAAUAUUUAACAUCUCAGAAAAAAAC | 0.27 ratio |
| UAUAAUAAUCAUGAAAUUCGUUCCGGGAAGCACAUUGGUGUCUGCAUCUCAGUUGCCAACAAUAGGCUUUUUGUGGGCUCUAUUCCUAAGAGUAAAACCAAGGAGCAGAUUCUUGAAGAA | 0.695 ratio |
